# Results gathered from unrelated publications.
# Parts stem from different laboratories: compare values within a part only. Changes are numbered by the printed parent chain.

# Sample 1
# Target: Histone acetyltransferase KAT6A, both winged helices, GST fusion (KAT6A, Homo sapiens, UniProt Q92794, residues 1-181)
# Technique: protein binding microarray
# Form: double-stranded DNA, one strand shown
# Sample: in vitro
# Tested at: not given
# Notes: 8-mer, flanks averaged, mean of 2 arrays, mostly near background
# Baseline: not given
# Direction: higher = stronger binding
# Target sequence (chain): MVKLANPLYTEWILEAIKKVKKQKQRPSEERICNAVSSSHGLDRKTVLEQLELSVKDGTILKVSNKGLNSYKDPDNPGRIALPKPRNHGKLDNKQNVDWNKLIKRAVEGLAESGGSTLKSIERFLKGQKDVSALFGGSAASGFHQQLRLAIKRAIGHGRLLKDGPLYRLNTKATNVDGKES
Oligonucleotide,E-score
ACGCCATC,0.0629
AGAAATCG,-0.146
GAACCCAA,-0.0953
GCTCGGTA,0.141
ACTATGAT,-0.144
ACAGGCCC,-0.0817
GCTGGGCC,-0.0284
CGCCGTGC,0.273
AGACGCCC,0.187
GGACGACC,0.0391
AACGCGCC,0.267
GGGGAACA,-0.112
ACACCGAG,0.0549
CCGGGTTC,0.292
TAGTGAAA,-0.26
ATCGGGGA,0.0536
ACTCCCCC,-0.133
AGAAACCT,-0.234
CCCAGGAG,-0.233

# Sample 2
# Target: RNA binding protein fox-1 homolog 2, RRM domain, GST-SBP tag (RBFOX2, Homo sapiens, UniProt O43251-10, residues 100-194)
# Technique: RNA Bind-n-Seq
# Form: RNA
# Sample: in vitro
# Tested at: 365 nM
# Notes: natural RNA segment, single round, ends assumed
# Baseline: no-protein control
# Direction: higher = stronger binding
# All sequences stand within: GGGAGUUCUACAGUCCGACGAUC … UGGAAUUCUCGGGUGCCAA
# Construct (chain): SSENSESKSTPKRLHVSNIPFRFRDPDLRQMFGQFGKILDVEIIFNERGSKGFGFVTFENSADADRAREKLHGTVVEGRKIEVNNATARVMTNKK
Oligonucleotide,RBNS enrichment (R)
CCACAGGAGCUGGAGUGAAGGUCUCUCCCCUUCCGCCGAGCCCGUCUGCCAGAGAGUGUCAGCUCUGUCAUCCACCAUAUUUCGACAGCCGCUCCUUGCUGCUACACGGG,0.26
UCCUCUUUUCAUAAAUGCUCUUGGACAUUAUUGGGCUUGCAGAGUUCCCUUAUUCUGGGGAUUACAAUGCUUUUAUCGUUUCAGGCUUCAUUUUAGCUUCAAAACAAGCU,0.286
AAGGAUACAAAAUGCAAAAUCCACAAUUUUGAUAACUGAAAAUUGCCAAUUGUUUUGCAGUACUUUAUUAUAUUGGGUGUCUUGUCUUUUUUGGGCUUUUAGUUAGCUAA,0.46
UUCAUGGUGGGCCCUGUGCUCUGUUAAUGAGUCCCUGGCAUGGAUGGAUGAAUACCUGAGUCACCAGCUGAAGUGUCCCUUAUGAGGAAAGAAGAGGCCAGGGACUAGAA,1.36
AGUGCAGUAAACGUUUGUACCCAAGUCCUCACCACCAGUCAUGAGUUGGCCUGUCACUUAAGUCAUUUCUCAACAAUGGCACUCACAAAGAGCUCCACAAUCAAGAUGGC,0.379
CCAAACCCAUGGUGCUUUCCCCCCGACCCCACUCAACCUACAUUCUGAGGAGGGGAGGGAUGGAUCAGAGGCCAUAGUGGCCCCCUGGAUAAUCCUGACAUGGGGUAGAG,0.259
UGCAACUAAUGGUUGUGCCAGCUAUUCCCUAGAGGUCCUAGACACACAGACUGCCUUAGCCCCCACACCUCUGUCCCUAGGAGAAUGAAUGGGCAGAGUGGAGCUGACAC,1.51
GCCCCUGGUCCUACUCCUGCCUCGGUGAUAGAAGGAGGCAGGGUAAGGGUAUGCCCCUGGCCACUAGAGAUCCUUAGAAACAGGUCUCUGAAGGAAAGGAGAUGCCAGGA,0.43
AACACACGAGCAAACCCAGAGGUGGAUGUUAUGAACAGCUGUGUCUGCCAAACACAUUUACCCUUUGGCCCCACUUUGAAGGGCAAGAAAUGGCGUCUGCUCUGGUGGCU,0.375
ACCCCAGCAAUUUUUCCAAAAGCCAGUCAAGGGCAUUACAUUUGUUCCUGGGACUGGCAGCUGGGCCUCCUGGGUGCCAGUCCAUCUCAAGUGCCAUAUUCUGUGAUCAC,0.253
CUGCGGGCCUGGCUUGUGUGAGCGUGUGGACAGUGGUGGCCGCGCUGUGCCUGCUCGUGUUGCCUACAUGUCCCUGGCUGUUGAGGCGCUGCUUCAGCCUGCACCCCUCC,0.876
GUUCUCAAACUCUCUCACUAUUAUCUGUGGUUGCCGUUUCUUCCCAAGGCCAGCCUGGACGAAUUUGGGGUUGCUCUAUCCUGAGAGUUGUAACCUCAACUUCCAAAGUU,0.635

# Sample 3
# Target: RING finger protein unkempt homolog, zinc fingers 1-6, GST-SBP tag (UNK, Homo sapiens, UniProt Q9C0B0, residues 30-357)
# UniProt Q9C0B0, sequence (30-357, looked up): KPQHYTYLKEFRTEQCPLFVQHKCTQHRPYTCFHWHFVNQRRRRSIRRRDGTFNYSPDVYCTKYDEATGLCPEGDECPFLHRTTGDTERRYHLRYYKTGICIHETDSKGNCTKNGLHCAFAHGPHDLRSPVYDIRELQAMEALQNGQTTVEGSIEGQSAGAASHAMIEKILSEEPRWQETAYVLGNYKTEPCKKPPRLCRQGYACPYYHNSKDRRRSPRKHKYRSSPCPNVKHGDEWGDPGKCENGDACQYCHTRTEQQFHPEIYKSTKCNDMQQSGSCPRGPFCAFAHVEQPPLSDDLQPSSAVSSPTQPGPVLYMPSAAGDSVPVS
# Technique: RNA Bind-n-Seq
# Form: RNA
# Sample: in vitro
# Tested at: not given
# Notes: RNA with constant flanks, human and mouse sites, ends assumed
# Baseline: input RNA pool
# Direction: higher = stronger binding
# All sequences stand within: GGGAGUUCUACAGUCCGACGAUC … CAACAGAGGAUUGAGCAUCA
Oligonucleotide,bound/input enrichment [ratio]
AAGGCAACACUGGUGGCUUCCUGCCCUUCGCCGCUCCUUGCCUCCCGUUUUGCUGGGUAUUUUAGAUUGGGAGUGACCCCUGUGAUUCCAGCCAUGGGUGCCUCAGCAUCUUCUCCUGCU,0.195
CAUAUUAAAUAUGAUCCAGAAAUUAUUGGUCCCAGAGAUAUUAUCCAUACCAUCGGAAGCUUAGGCUUUGAAGCUUCUUUGGUCAAGAAAGAUCGAUCAGCCAACCACUUAGAUCAUAAA,0.397
GAAACUCCCCAUUGUCACUGAGAACCACCAAAUCUGACUUUUACAUUUGGUCUCAGAAUUUAGGUUCCUGCCCUGUUGGUUUUUUUUUUUUUUUUUUAAACAGUUUUCAAAAGUUCUUAA,4.83
CUGAAUCAUUUUGUUUGUUAUCUGUCUGUCUCUCUGUCUGUCUGUUUGUAUUUUGAGUUAUGUGAAUAUAAGGGUAGGUAUGUGCAGCUGAGGGAAGUUGUCUGGAGAGGACAGAAAGAG,0.344
ACACAACUUGAUCAACGAAAGAUUAAACAUCCUACUGCCCUAGGAUUAGAAGUUGGCCAAGAAAUUCAGGUGAAAUACUUUGGACGUGACCCAGCCGAUGGAAGAAUGAGGCUUUCUCGA,0.209
UACAGGGGUGCAUACCAUCUUGCAGUGGCUUGGCUGACAUUGCCUCUUUGUCCUGGCCUCUAGUUUUCUUUUGAUAUUUCAUAGCUCUCCUUAGUUUACUCUGCCUGGAUAGAAAGUUGA,35
UCACUACACUUGCCAAAAAACAACAGUCUUUAUGUCCUUACACCAGACUUGCCACCGCCUUCAUCAUCCAGCCAUGCUGGUGCCCUGCAGGAAUCAUUAAAUCAAAACUUCAUGCUGAUC,0.477
GGGGGCAAGGCCAAAAAGAAGAAGUGGUCCAAAGGCAAAGUUCGGGACAAGCUCAAUAACUUAGUCUUGUUUGACAAAGCUACCUAUGAUAAACUCUGUAAGGAAGUUCCCAACUAUAAA,0.51
UCAGGGGGCACGCUGAGUGGCGGCAUUCUCUCCAGUGGCAAGGGAAAAUAUAGCAGGUUAGAAGUUCAAGCCGAUGUCCAAAAGGAAAUUUUCCCCAAAGACACAGCCAGUCUUGGUGCA,0.256
CUGUGUGUGCUGAAUAAAUGGCUUGUAAAGAAGUUUUUCCAAGCUGUAACCCAUGCUGUUAUUAUAGUUGCUGCAAAAUGUUCUUCCUGAUAUUGAUUUUAUUUGUUAACUGAAGGUCUC,0.546
AGAAAAUUGUGCUACAGUGUGUGUGUGCGUGUGUGUAUGUGUAGUGCUAGGAGUCCACAGUAGGUUGCUUGUCAAGCCAUUGCCGUGACAAUGGCAUCUCUUAUAUUGACCCAAAAACCA,0.361

# Sample 4
# Target: CCNA2, cyclin fold, Cln2 fusion (human)
# Technique: yeast growth competition, sequencing
# Sample: yeast
# Notes: strong parent motif
# Baseline: not given
# Direction: higher = stronger binding
# Starting sequence: INSM1 docking peptide (human); PKAIRKLHFEDEV; partner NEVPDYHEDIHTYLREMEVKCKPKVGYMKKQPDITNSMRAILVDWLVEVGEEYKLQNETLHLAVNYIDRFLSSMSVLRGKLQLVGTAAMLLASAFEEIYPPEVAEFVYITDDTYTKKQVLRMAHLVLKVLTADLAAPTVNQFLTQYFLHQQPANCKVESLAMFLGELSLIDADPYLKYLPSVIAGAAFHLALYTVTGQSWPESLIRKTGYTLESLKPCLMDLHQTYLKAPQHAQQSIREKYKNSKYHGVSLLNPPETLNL
Change,normalised enrichment score
K6C,4.73
A3N,0.577
K6H,4.19
F9Q,0.177
K6I,2.33
A3H,4.18
E10C,4.84
H8S,4.9
D11F,4.65
E10N,4.75
A3C,5.72
D11Q,4.92
E12Q,4.98
K6S,4.02
H8A,4.69
A3S,3.57
I4S,5.79
K6E,3.01
E12L,5.28
A3M,2.75
K6W,1.07
I4M,6.2
E10L,4.22
E12T,5.32
I4P,4.11

# Sample 5
# Target: Sal-like protein 4, full length isoform B (SALL4, Homo sapiens, UniProt Q9UJQ4-2, residues 1-616)
# Technique: universal PBM
# Form: double-stranded DNA, one strand shown
# Sample: in vitro
# Tested at: not given
# Notes: 8-mer, flanks averaged, mean of replicates
# Direction: higher = stronger binding
Oligonucleotide,E-score
ACACTAGC,-0.0913
ACTGCGTC,-0.0314
TGCGATAA,0.244
AACAAACG,0.00618
GAATAATA,0.379
CACGCAGG,-0.0624
CGTCTTTC,0.0546
GAGTCGGC,-0.224
GCGGCCGA,-0.231
GACTTACA,0.0577
CAGATACC,-0.0267
AGCCAGCC,-0.293
ACCGGTCC,-0.312
CCATTTAG,-0.0708
CCATATGA,0.137
ACCAGATG,-0.0391
ACCGCAAG,-0.044
ATAGCCAG,-0.0588
CCTTGAAG,0.0148
GAGCCCTC,-0.297
ACTCCAGT,0.0408
CAAACATC,0.056
ATTTTTCA,0.349
TAGCGTGA,0.0391
